Experimental data from different studies.
Compare with care: the assays were run in different laboratories. ± marks the error that the study gave.
Sequence of UniProt P21729 (whole entry, looked up): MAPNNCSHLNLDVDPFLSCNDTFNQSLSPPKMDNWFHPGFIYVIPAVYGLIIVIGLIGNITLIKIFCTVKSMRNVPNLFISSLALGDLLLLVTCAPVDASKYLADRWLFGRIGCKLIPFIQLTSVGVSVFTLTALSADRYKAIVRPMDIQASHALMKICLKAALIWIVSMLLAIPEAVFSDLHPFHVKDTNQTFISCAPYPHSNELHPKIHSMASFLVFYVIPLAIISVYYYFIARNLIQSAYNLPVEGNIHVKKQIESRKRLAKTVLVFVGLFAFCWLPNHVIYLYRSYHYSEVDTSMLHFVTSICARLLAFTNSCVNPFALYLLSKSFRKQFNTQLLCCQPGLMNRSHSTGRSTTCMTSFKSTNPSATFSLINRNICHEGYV

SMILES	tested on	assay	system	setting	quantity	value
N=C(N)NCCC[C@@H]1NC(=O)[C@H](CCCCNC(=O)CCOCCOCCOCCOCCNC(=O)CC[C@H](NC(=O)CCOCCOCCOCCOCCNC(=O)CC[C@H](NC(=O)CN2CCN(CC(=O)O)CCN(CC(=O)O)CCN(CC(=O)O)CC2)C(=O)NCCOCCOCCOCCOCCC(=O)N[C@@H](CCC(=O)NCCOCCOCCOCCOCCC(=O)NCCCC[C@@H]2NC(=O)[C@@H](Cc3ccccc3)NC(=O)[C@H](CC(=O)O)NC(=O)CNC(=O)[C@H](CCCNC(=N)N)NC2=O)C(=O)NCCOCCOCCOCCOCCC(=O)NCCCC[C@@H]2NC(=O)[C@@H](Cc3ccccc3)NC(=O)[C@H](CC(=O)O)NC(=O)CNC(=O)[C@H](CCCNC(=N)N)NC2=O)C(=O)NCCOCCOCCOCCOCCC(=O)NCCCC[C@@H]2NC(=O)[C@@H](Cc3ccccc3)NC(=O)[C@H](CC(=O)O)NC(=O)CNC(=O)[C@H](CCCNC(=N)N)NC2=O)NC(=O)[C@@H](Cc2ccccc2)NC(=O)[C@H](CC(=O)O)NC(=O)CNC1=O [indium-111 labelled]			athymic nude mice, female, U-87 MG glioma xenograft, bone	intravenous, 3 µCi, 72 h	tissue uptake	0.66 ± 0.01 %ID/g
CSCC[C@H](NC(=O)[C@H](CC(C)C)NC(=O)[C@H](Cc1c[nH]cn1)NC(=O)CNC(=O)[C@@H](NC(=O)[C@H](C)NC(=O)[C@H](Cc1c[nH]c2ccccc12)NC(=O)[C@H](CCC(N)=O)NC(=O)CNC(=O)[C@H](CO)NC(=O)CNC(=O)CCCCCCCNC(=O)CCC(=O)Nc1ccc(CNC23CNCCNCC(N)(CNCCNC2)CNCCNC3)cc1)C(C)C)C(N)=O [copper-64 labelled]			female SCID mice, PC-3 xenograft, kidney	intravenous, 0.6 MBq, 4 h	tissue uptake	5.53 ± 0.459 %ID/g
N=C(N)NCCC[C@@H]1NC(=O)[C@H](CCCCNC(=O)CC[C@H](NC(=O)CCOCCOCCOCCOCCNC(=O)CN2CCN(CC(=O)O)CCN(CC(=O)O)CCN(CC(=O)O)CC2)C(=O)NCCCC[C@@H]2NC(=O)[C@@H](Cc3ccccc3)NC(=O)[C@H](CC(=O)O)NC(=O)CNC(=O)[C@H](CCCNC(=N)N)NC2=O)NC(=O)[C@@H](Cc2ccccc2)NC(=O)[C@H](CC(=O)O)NC(=O)CNC1=O [indium-111 labelled]			female athymic nude mice, lungs	intravenous, 3 µCi, 24 h, U-87 MG glioma xenograft	tissue uptake	0.78 ± 0.09 %ID/g
CCCC[C@H](NC(=O)COCCOCCNC(=O)c1ccc(NN)nc1)C(=O)N[C@H]1CC(=O)NCCCC[C@@H](C(N)=O)NC(=O)[C@H](Cc2c[nH]c3ccccc23)NC(=O)[C@H](CCCNC(=N)N)NC(=O)[C@@H](Cc2ccccc2)NC(=O)[C@H](Cc2c[nH]cn2)NC1=O [technetium-99m labelled]			C57 mouse, female, B16/F1 melanoma, stomach	intravenous, 0.037 MBq, 2 h	tissue uptake	0.43 ± 0.05 %ID/g
N=C(N)NCCC[C@H](NC(=O)[C@H](CCCCN)NC(=O)[C@H](CCC(N)=O)NC(=O)CCOCCOCCOCCNC(=O)CN1CCN(CC(=O)O)CCN(CC(=O)O)CCN(CC(=O)O)CC1)C(=O)N[C@@H](CCCCN)C(=O)N[C@@H](CCCNC(=N)N)C(=O)N[C@@H](CCCCN)C(=O)N[C@@H](CCCCN)C(=O)N[C@@H](CO)C(=O)N[C@@H](CCCNC(=N)N)C(=O)N[C@@H](Cc1ccc(O)cc1)C(=O)N[C@@H](CCCCN)C(=O)N[C@@H](CO)C(=O)O [copper-64 labelled]			male C57BL/6 mice, B16-F10 tumour, spleen	intravenous, 60 min	tissue uptake	0.97 ± 0.1 %ID/g
COc1ccc(CNc2nc(N3CCC[C@H]3CO)ncc2C(=O)NN)cc1Cl	Salmonella typhimurium		TA98	250 µg/plate, 48 h, with: rat liver S9	revertant count	42 ± 3
CCCNC(=O)[C@H](CC(C)C)NC(=O)[C@H](Cc1c[nH]cn1)NC(=O)CNC(=O)[C@@H](NC(=O)[C@H](C)NC(=O)[C@H](Cc1c[nH]c2ccccc12)NC(=O)[C@H](CCC(N)=O)NC(=O)[C@@H](Cc1ccccc1)NC(=O)CCCCCNC(=O)CN1CCN(CC(=O)O)CCN(CC(=O)O)CCN(CC(=O)O)CC1)C(C)C [indium-111 labelled]	Gastrin-releasing peptide receptor (Mus musculus, UniProt P21729)	biodistribution	CF-1 mice, bone	intravenous, 1 h, with: bombesin 100 µg, blocking	tissue uptake	0.09 ± 0.03 %ID/g
CCCC[C@H](NC(=O)CCCCCCCNC(=O)c1ccc(NN)nc1)C(=O)N[C@H]1CC(=O)NCCCC[C@@H](C(N)=O)NC(=O)[C@H](Cc2c[nH]c3ccccc23)NC(=O)[C@H](CCCNC(=N)N)NC(=O)[C@@H](Cc2ccccc2)NC(=O)[C@H](Cc2c[nH]cn2)NC1=O [technetium-99m labelled]			C57 mouse, B16/F1 melanoma, skin	2 h, with: NDP-MSH 10 µg (6.07 nmol) co-injected	tissue uptake	0.45 ± 0.06 %ID/g
CN(C)CC1CCCCC1(O)c1cccc(O)c1 (stereo not drawn)	P-glycoprotein		Caco-2 TC7	10 µM, 3 h, pH 7.4, with: cyclosporin A 10 µM	Papp A to B	12.8 ± 0.9 ×10⁻⁶ cm/s
CCCC[C@H](NC(=O)CNC(=O)CNC(=O)c1ccc(NN)nc1)C(=O)N[C@H]1CC(=O)NCCCC[C@@H](C(N)=O)NC(=O)[C@H](Cc2c[nH]c3ccccc23)NC(=O)[C@H](CCCNC(=N)N)NC(=O)[C@@H](Cc2ccccc2)NC(=O)[C@H](Cc2c[nH]cn2)NC1=O [technetium-99m labelled]			C57 mouse, B16/F1 melanoma, urine	2 h, with: L-lysine 12 mg	tissue uptake	95 ± 1.54 %ID
CSCC[C@H](NC(=O)[C@H](CC(C)C)NC(=O)[C@H](Cc1c[nH]cn1)NC(=O)CNC(=O)[C@@H](NC(=O)[C@H](C)NC(=O)[C@H](Cc1c[nH]c2ccccc12)NC(=O)[C@H](CCC(N)=O)NC(=O)CCCCCNC(=O)CNC(=O)CNC(=O)CNC(=O)CSC(C)=O)C(C)C)C(N)=O [technetium-99m labelled]			nude mouse, PC-3 xenograft, tumor	30 min	tissue uptake	0.75 ± 0.15 %ID/g
COc1cc(C(=O)NCCOCCOCCOCCNC(=O)c2ccc([18F])nc2)ccc1NC(=O)C1NC(CC(C)(C)C)C(C#N)(c2ccc(Cl)cc2F)C1c1cccc(Cl)c1F (stereo not drawn)	HepG2 tumour model		host not given, brain	2 h, tumour-bearing	tracer uptake	0.39 %ID/g
N=C(N)NCCC[C@@H]1NC(=O)[C@H](CC(=O)NC23CNCCNCC(N)(CNCCNC2)CNCCNC3)NC(=O)[C@@H](Cc2ccccc2)NC(=O)[C@H](CC(=O)O)NC(=O)CNC1=O [copper-64 labelled]			Nu/Nu mouse, male, tumour-bearing, liver	intravenous, 10 µCi, 4 h	tissue uptake	2.17 ± 0.64 %ID/g
CN[C@](C)(C[18F])C(=O)O	MDA-MB-468 tumour model		host not given, lung	2 h, tumour-bearing	tracer uptake	1 %ID/g
N=C(N)NCCC[C@@H]1NC(=O)[C@H](CCCCNC(=O)CC[C@H](NC(=O)CCOCCOCCOCCOCCNC(=O)CC[C@H](NC(=O)CN2CCN(CC(=O)O)CCN(CC(=O)O)CCN(CC(=O)O)CC2)C(=O)NCCOCCOCCOCCOCCC(=O)N[C@@H](CCC(=O)NCCCC[C@@H]2NC(=O)[C@@H](Cc3ccccc3)NC(=O)[C@H](CC(=O)O)NC(=O)CNC(=O)[C@H](CCCNC(=N)N)NC2=O)C(=O)NCCCC[C@@H]2NC(=O)[C@@H](Cc3ccccc3)NC(=O)[C@H](CC(=O)O)NC(=O)CNC(=O)[C@H](CCCNC(=N)N)NC2=O)C(=O)NCCCC[C@@H]2NC(=O)[C@@H](Cc3ccccc3)NC(=O)[C@H](CC(=O)O)NC(=O)CNC(=O)[C@H](CCCNC(=N)N)NC2=O)NC(=O)[C@@H](Cc2ccccc2)NC(=O)[C@H](CC(=O)O)NC(=O)CNC1=O [indium-111 labelled]			female athymic nude mice, blood	intravenous, 3 µCi, 72 h, U-87 MG glioma xenograft	tissue uptake	0.02 ± 0.02 %ID/g

Some of these lines once more:
SMILES	tested on	assay	system	setting	quantity	value
N=C(N)NCCC[C@@H]1NC(=O)[C@H](CC(=O)NC23CNCCNCC(N)(CNCCNC2)CNCCNC3)NC(=O)[C@@H](Cc2ccccc2)NC(=O)[C@H](CC(=O)O)NC(=O)CNC1=O [copper-64 labelled]			Nu/Nu mouse, male, tumour-bearing, liver	intravenous, 10 µCi, 4 h	tissue uptake	2.17 ± 0.64 %ID/g
CN[C@](C)(C[18F])C(=O)O	MDA-MB-468 tumour model		host not given, lung	2 h, tumour-bearing	tracer uptake	1 %ID/g
N=C(N)NCCC[C@@H]1NC(=O)[C@H](CCCCNC(=O)CC[C@H](NC(=O)CCOCCOCCOCCOCCNC(=O)CC[C@H](NC(=O)CN2CCN(CC(=O)O)CCN(CC(=O)O)CCN(CC(=O)O)CC2)C(=O)NCCOCCOCCOCCOCCC(=O)N[C@@H](CCC(=O)NCCCC[C@@H]2NC(=O)[C@@H](Cc3ccccc3)NC(=O)[C@H](CC(=O)O)NC(=O)CNC(=O)[C@H](CCCNC(=N)N)NC2=O)C(=O)NCCCC[C@@H]2NC(=O)[C@@H](Cc3ccccc3)NC(=O)[C@H](CC(=O)O)NC(=O)CNC(=O)[C@H](CCCNC(=N)N)NC2=O)C(=O)NCCCC[C@@H]2NC(=O)[C@@H](Cc3ccccc3)NC(=O)[C@H](CC(=O)O)NC(=O)CNC(=O)[C@H](CCCNC(=N)N)NC2=O)NC(=O)[C@@H](Cc2ccccc2)NC(=O)[C@H](CC(=O)O)NC(=O)CNC1=O [indium-111 labelled]			female athymic nude mice, blood	intravenous, 3 µCi, 72 h, U-87 MG glioma xenograft	tissue uptake	0.02 ± 0.02 %ID/g
